Results of several laboratories.
Parts stem from different laboratories: compare values within a part only.

Series 1
Target: TAR DNA-binding protein 43, full length, His tag (TARDBP, Homo sapiens, UniProt Q13148, residues 1-414)
Technique: RNA Bind-n-Seq
Form: RNA
Medium: in vitro
Concentration: 20 nM
Notes: 6-mer, flanks averaged, single round
Added: 150 mM KCl
Relative to: input library
Reading: higher = stronger binding
Endpoint: 6-mer enrichment (R)
Sequence = GGAGCC; value = 1.49
Sequence = CGCAAG; value = 0.929
Sequence = UUAUAU; value = 0.624
Sequence = UGUCAA; value = 0.65
Sequence = GGUCGA; value = 1.46
Sequence = UUGCUC; value = 0.583
Sequence = AACCGG; value = 0.974
Sequence = GAAAGG; value = 1.9
Sequence = CAUUAA; value = 0.577
Sequence = CCAUAG; value = 0.685
Sequence = GGCCUU; value = 0.934
Sequence = UGCACU; value = 0.63
Sequence = CUAGUU; value = 0.593
Sequence = GCACUC; value = 0.674
Sequence = GAAAUU; value = 0.63
Sequence = GCGGUA; value = 1.42
Sequence = ACGUUC; value = 0.558
Sequence = CAAGCC; value = 0.667
Sequence = UACGGG; value = 2.07
Sequence = AGGUAC; value = 0.814
Sequence = AACGGC; value = 0.831
Sequence = CCGGUG; value = 1.33
Sequence = GUGGAA; value = 1.58
Sequence = CAGCUC; value = 0.621
Sequence = CUCUCU; value = 0.563

Series 2
Target: Histone acetyltransferase KAT6A, both winged helices, GST fusion (KAT6A, Homo sapiens, UniProt Q92794, residues 1-181)
Technique: protein binding microarray
Form: double-stranded DNA, one strand shown
Medium: in vitro
Concentration: not given
Notes: 8-mer, flanks averaged, mean of 2 arrays, mostly near background
Relative to: not given
Reading: higher = stronger binding
Endpoint: E-score
Target sequence (chain): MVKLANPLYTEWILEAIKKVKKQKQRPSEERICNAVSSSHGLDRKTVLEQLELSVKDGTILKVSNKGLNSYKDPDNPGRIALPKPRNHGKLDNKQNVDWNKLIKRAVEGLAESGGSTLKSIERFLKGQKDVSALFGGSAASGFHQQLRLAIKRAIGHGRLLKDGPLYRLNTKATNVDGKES
Sequence = ATAGCCCA; value = -0.243
Sequence = AGTAGTGC; value = -0.0266
Sequence = CTAAATGC; value = -0.0644
Sequence = TACTGTGA; value = -0.149
Sequence = TCCCGAGA; value = 0.127
Sequence = GGCCTGAA; value = 0.0215
Sequence = CCAAAGTA; value = -0.133
Sequence = AAGGCCCG; value = 0.192
Sequence = AGGAACCC; value = -0.157
Sequence = AAAGAACG; value = 0.117
Sequence = ACACCGCA; value = 0.0645
Sequence = ATGGCGGC; value = 0.243
Sequence = AGTATACT; value = -0.239
Sequence = CGGTGTCA; value = 0.145
Sequence = GGCTCTGA; value = -0.277
Sequence = AAATCCCT; value = -0.0171
Sequence = ATGCAGTA; value = -0.104

Series 3
Target: Interferon regulatory factor 7, full length, phosphomimetic (IRF7, Homo sapiens, UniProt Q92985, residues 1-503, S101K/S471D/S472D/S475D/S476D/S477D/S483D/S484D/S487D)
Technique: protein-binding microarray
Form: double-stranded DNA, one strand shown
Medium: in vitro
Concentration: 250 nM
Notes: 60-bp whole probe
Added: salmon DNA 0.4 mg/ml
Relative to: random background probes
Reading: higher = stronger binding
Endpoint: log fluorescence
All sequences stand within: GCCTAGCAC … GTCTTGATTCGCTTGACGCTGCTG
Construct (chain): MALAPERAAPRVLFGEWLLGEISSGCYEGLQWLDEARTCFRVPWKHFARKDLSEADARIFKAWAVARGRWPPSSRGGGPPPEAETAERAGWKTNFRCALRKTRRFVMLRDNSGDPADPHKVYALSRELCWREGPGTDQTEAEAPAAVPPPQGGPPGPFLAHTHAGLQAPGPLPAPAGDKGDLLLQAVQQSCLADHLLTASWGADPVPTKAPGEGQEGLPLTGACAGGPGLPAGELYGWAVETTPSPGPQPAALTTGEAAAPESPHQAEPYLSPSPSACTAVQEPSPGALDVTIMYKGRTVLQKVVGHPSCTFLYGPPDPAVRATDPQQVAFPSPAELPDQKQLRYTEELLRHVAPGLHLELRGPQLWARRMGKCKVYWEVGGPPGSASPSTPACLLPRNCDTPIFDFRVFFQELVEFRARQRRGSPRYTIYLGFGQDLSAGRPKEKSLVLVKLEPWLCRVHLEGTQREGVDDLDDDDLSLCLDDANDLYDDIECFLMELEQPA
Sequence = ACCCGAGTCCCTATCTCCTCGTGCTAG; value = 0.355 z-score
Sequence = TCAGGAAACTTAAACTAGACTGTGCTA; value = -0.253 z-score
Sequence = TCACCTTTCTCAACCTCACTGTGCTAG; value = 1.29 z-score
Sequence = TTAGATTTCAGTAACGATTAGTGCTAG; value = 0.503 z-score
Sequence = GACGGTTCCGGTTTCGCGACGTGCTAG; value = 6.28 z-score
Sequence = GACGGTTTCCTACGGCTGACGTGCTAG; value = 0.985 z-score
Sequence = ATATTGATGGCTCTCTGGACGTGCTAG; value = -0.16 z-score
Sequence = ATAGGTATCGGTCTCGGTTAGTGCTAG; value = 2.1 z-score
Sequence = CTCTGGGGAGATCAGCGCATGTGCTAG; value = -1.44 z-score
Sequence = TCATCTCTCTGTGACACACTGTGCTAG; value = 0.795 z-score
Sequence = TCAATCCTCTCACCTCAGACTGTGCTA; value = -0.172 z-score
Sequence = TTAGTACTGAGTATCGATTAGTGCTAG; value = 0.871 z-score
Sequence = GACGGTATCCGTATCGGGACGTGCTAG; value = -0.0417 z-score
Sequence = TCAGTTTTAAATTCTAAACTGTGCTAG; value = 0.606 z-score
Sequence = CTTAGTTTGTATATATTTTAGTGCTAG; value = 0.491 z-score
Sequence = CCATTTTGTGTTTTCATTTTGTGCTAG; value = 2.7 z-score
Sequence = TTAGGACTGCTTATCCTTCAGTGCTAG; value = -0.14 z-score
Sequence = GACGATATCAGTATCGAGCCGTGCTAG; value = -0.368 z-score
Sequence = GACGGACTGGGACTGGTGACGTGCTAG; value = -0.643 z-score

Series 4
Target: RNA binding protein fox-1 homolog 2, RRM domain, GST-SBP tag (RBFOX2, Homo sapiens, UniProt O43251-10, residues 100-194)
Technique: RNA Bind-n-Seq
Form: RNA
Medium: in vitro
Concentration: 365 nM
Notes: natural RNA segment, single round, ends assumed
Relative to: no-protein control
Reading: higher = stronger binding
Endpoint: RBNS enrichment (R)
Residues (chain): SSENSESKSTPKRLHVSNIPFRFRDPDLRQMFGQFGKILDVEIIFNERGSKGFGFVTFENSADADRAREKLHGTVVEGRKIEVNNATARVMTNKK
Sequence = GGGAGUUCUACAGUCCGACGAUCGACUUCCACAGAUUCUACUUCGAGAACGUGCUGGCCAAGAACAGCAAGCCGAUCCACACGACCAUCCUGAACCCACACGUGCACGUCAUUGGAGAGGAUGCCGCCUGCAUUGGAAUUCUCGGGUGCCAA; value = 4.9
Sequence = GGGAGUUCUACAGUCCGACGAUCCCCCACCUGGGUCAAGGGUUCAGUAUUUUAGUCUAAAACUUCAGAAAGUCAAGCAUCACUUAAGACAUGCCCAGGGCUCCAGCUUGCCCUCAGCAGUCCUUCAGGACUUCUGGAAUUCUCGGGUGCCAA; value = 0.883
Sequence = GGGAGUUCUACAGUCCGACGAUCGAGCUUCAUCUUUCCAGAAUGAGCAAAACACUGUCCAGUCUUUGUUACGAUUUUGUAAUAAAUGUGUACAUUUUUUUUAAAUUUUUGGACAUCACAUGAAUAAAGGUAUGUGGAAUUCUCGGGUGCCAA; value = 0.341
Sequence = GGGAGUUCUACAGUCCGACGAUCCCCAGGAGGUAGAAAAUGAGUGGCAGGCUAGAGAUUUCACCCAUUUUGUGGGCUGGAGUUACCAGUAGCUCCAGCAGUUACCCUGAAGAGAGAUUGGGCUUCAGCCUUCAUGGAAUUCUCGGGUGCCAA; value = 0.621
Sequence = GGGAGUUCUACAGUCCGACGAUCUUGAUGGUGAGAGCAGCGGGAGGUUUGAGGUGUACUCAUUGCAGUCCACUUUGGUCUGUAAGUAGGAUGCUUACGAGAAAUCAGUGAAGGUAAGCAGGGCUGCCACUGUGUGGAAUUCUCGGGUGCCAA; value = 0.586
Sequence = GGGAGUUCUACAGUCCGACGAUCUUGUUAAAGAUGUUCCACUGAAAGCAACGCAUGUUUCAAAGGCACGUCUUUCCGUUCGUUGGUUUUCUGUGUGUAAGGAGUAGCAUUGCUGUUGGCGCCUAACCUCGCGUUGGAAUUCUCGGGUGCCAA; value = 7.54
Sequence = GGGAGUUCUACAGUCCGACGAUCCUAAUCCCAAGUCAAUGCGUGUAUCCCCUGCCAGGCUGCCUCAGCCUCCCUCCCCAUUACCCACUCUGUCCCCGGGGUUCGGAGGAAUGGGCGAGCAGAAAAACCUUAGGUGGAAUUCUCGGGUGCCAA; value = 0.932
Sequence = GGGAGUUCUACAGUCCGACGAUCAGGACCUUUCCACCACAGCCAGCACCUGGCAUCGCACCAUUCUGACUCGGUUUCUCCAAACUGAAGCAGCCUCUCCCCAGGUCCAGCUCUGGAGGGGAGGGGGAUCCGACUGGAAUUCUCGGGUGCCAA; value = 0.416

Excerpt of the above (series 3):
Sequence = TCATCTCTCTGTGACACACTGTGCTAG; value = 0.795 z-score
Sequence = TCAATCCTCTCACCTCAGACTGTGCTA; value = -0.172 z-score
Sequence = TTAGTACTGAGTATCGATTAGTGCTAG; value = 0.871 z-score
Sequence = GACGGTATCCGTATCGGGACGTGCTAG; value = -0.0417 z-score
Sequence = TCAGTTTTAAATTCTAAACTGTGCTAG; value = 0.606 z-score
Sequence = CTTAGTTTGTATATATTTTAGTGCTAG; value = 0.491 z-score
